Experimental data gathered from unrelated publications.
Each numbered part is a random draw from the data of one study; scales do not carry over between parts. Positions count from the first letter of the parent shown.

Set 1
Target: Prothrombin, mature alpha-thrombin (F2, Homo sapiens, UniProt P00734)
Technique: aptamer microarray, sandwich
Form: DNA with 2'F-ANA
Sample: in vitro
Tested at: 200 nM
Setting: whole 15-mer aptamer, many near background
With: Cy3 exosite-II aptamer, 400 nM
Reading: higher = stronger binding
Oligonucleotide: GGTTGGTGTGGTTGG
Modification	mean fluorescence intensity
2'F-ANA at 3 6	1090 a.u.
2'F-ANA at 1 3 4 5 6 7 9 10 13 14 15	48.9 a.u.
2'F-ANA at 1 2 6 7 11 12 15	217 a.u.
2'F-ANA at 1 3 6 8 10 12	119 a.u.
2'F-ANA at 1 4 5 6 8 12	118 a.u.
2'F-ANA at 1 2 3 4 5 6 8 9 12 14	50.4 a.u.
2'F-ANA at 4 5 9 15	66 a.u.
2'F-ANA at 1 2 4 7 9 14	50.3 a.u.
2'F-ANA at 2 3 6 9 10 12 14	255 a.u.
2'F-ANA at 2 3 6 8 10 11 15	336 a.u.
2'F-ANA at 2 3 4 6 7 8 9 12 15	745 a.u.
2'F-ANA at 1 3 4 8 14	82.5 a.u.
2'F-ANA at 3 5 7 12 13	205 a.u.
2'F-ANA at 2 3 5 8 10 11 12 13 14	52.1 a.u.
2'F-ANA at 3 5 7 8 9 10 11 14	130 a.u.
2'F-ANA at 1 5 6 9 10 11	48.8 a.u.
2'F-ANA at 1 2 10 11	53.8 a.u.
2'F-ANA at 2 3 4 6 10 11 13 14	132 a.u.
2'F-ANA at 2 3 7 9 11 12 13 15	860 a.u.
2'F-ANA at 5 6 8 10 11 12 15	142 a.u.
2'F-ANA at 1 2 3 8 10 12 13 15	96.6 a.u.

Set 2
Target: Interferon regulatory factor 3, full length, phosphomimetic (IRF3, Homo sapiens, UniProt Q14653, residues 1-427, S386D/S396D/S398D/S402D/T404D/S405D)
Technique: protein-binding microarray
Form: double-stranded DNA, one strand shown
Sample: in vitro
Tested at: 2540 nM top
Setting: 60-bp whole probe
With: salmon DNA 0.4 mg/ml
Reference: random background probes
Reading: higher = stronger binding
Shared flanks, not repeated: GCCTAGCAC … GTCTTGATTCGCTTGACGCTGCTG
Construct (chain): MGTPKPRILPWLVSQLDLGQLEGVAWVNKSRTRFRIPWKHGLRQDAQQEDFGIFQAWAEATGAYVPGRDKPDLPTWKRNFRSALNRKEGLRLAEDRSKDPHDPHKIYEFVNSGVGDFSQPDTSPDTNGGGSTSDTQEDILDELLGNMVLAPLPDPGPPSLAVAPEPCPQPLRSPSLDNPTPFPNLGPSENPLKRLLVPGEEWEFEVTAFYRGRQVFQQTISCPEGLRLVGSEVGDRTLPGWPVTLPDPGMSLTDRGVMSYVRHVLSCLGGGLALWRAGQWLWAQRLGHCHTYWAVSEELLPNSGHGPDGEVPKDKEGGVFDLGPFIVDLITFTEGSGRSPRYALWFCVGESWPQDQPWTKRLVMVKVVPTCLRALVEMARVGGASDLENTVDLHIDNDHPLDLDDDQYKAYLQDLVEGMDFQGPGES
Oligonucleotide	fitted relative affinity
TTAGGTTCCCTTTTCCTTCAGTGCTAG	7.56 z-score
TCATTTATTTATTTTTAACTGTGCTAG	1.33 z-score
TTAGATTCCAGTTTCGATGAGTGCTAG	3.96 z-score
GACGGTCTCCTACTGTTGACGTGCTAG	1.07 z-score
TTAGGTCTCGGTCTCGGTGAGTGCTAG	1.04 z-score
TTAGATATCAGTAGCGATTAGTGCTAG	-0.0523 z-score
GACGATTTCGGGTTTCTAGACGTGCTA	2.61 z-score
TTAGAACTGGGTTATCGATTAGTGCTA	-0.392 z-score
TTAGTTATCGGGACTGGATTAGTGCTA	0.465 z-score
GACGGACTGGGGTTTCGGGACGTGCTA	0.654 z-score
GTCCACTCCAGACCGTTTGCGTGCTAG	0.325 z-score
TCAGACTTTGGTTTGTAACTGTGCTAG	-0.305 z-score
TTAGAACTGAGTATGGATTAGTGCTAG	-0.341 z-score
GACGGTATCCTTCTCCCGACGTGCTAG	7.59 z-score
GACGGTCTCAGACTGGGGACGTGCTAG	0.177 z-score
GACCGTATCCTTATCCTGACGTGCTAG	4.44 z-score
TCAGTGGTCTGTTTCTGACTGTGCTAG	1.39 z-score
GACGAATTCAGACTGGAGACGTGCTAG	0.264 z-score
GACGGTATCGGTAGCGGGACGTGCTAG	2 z-score
TTAGGTCTCGGTATCGGTCAGTGCTAG	1.88 z-score

Set 3
Target: Phosphate system positive regulatory protein PHO4, full length, GST-tagged (PHO4, Saccharomyces cerevisiae, UniProt P07270, residues 1-312)
Technique: competition protein-binding microarray
Form: double-stranded DNA, one strand shown
Sample: in vitro
Tested at: 2 µM
Setting: whole 60-bp probe, lowest competitor level
With: Cbf1 competitor, 0.05 µM
Reading: higher = stronger binding
Residues (chain): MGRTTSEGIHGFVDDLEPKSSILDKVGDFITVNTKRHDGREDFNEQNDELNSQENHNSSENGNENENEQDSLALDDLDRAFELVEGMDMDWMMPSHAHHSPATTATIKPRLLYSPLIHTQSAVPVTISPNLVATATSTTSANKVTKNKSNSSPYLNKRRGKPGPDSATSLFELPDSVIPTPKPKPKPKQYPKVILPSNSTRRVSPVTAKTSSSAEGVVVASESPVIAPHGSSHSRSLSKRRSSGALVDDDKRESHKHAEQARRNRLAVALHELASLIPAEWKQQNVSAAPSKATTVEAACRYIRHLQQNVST
Oligonucleotide	fluorescence intensity [a.u.]
TGACATTGCTCGAGTCACGTTCAGAAAACGAGAAGAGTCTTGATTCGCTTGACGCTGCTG	9430
CATTAAGTGCTTCCTCACGTGCCGATCTACTTCTCTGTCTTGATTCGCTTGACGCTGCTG	14700
CTAACGAAGGTTTGCTGTGTGGGTGACAAGCCAAGTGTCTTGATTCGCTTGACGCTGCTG	5080
CAAGTGGTGGTGATACACGTGAAGTTTTAGAGGAAAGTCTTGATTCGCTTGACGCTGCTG	12900
CCTGCAGGGGTTCCACGCGTGCCAGGTAGCGGTTGAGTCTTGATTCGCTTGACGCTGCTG	8780
AAAAGTTTCCCTTCTCACGTGTCCATAAAGCATCAAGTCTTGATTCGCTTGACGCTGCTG	14000
CTCTGAGTTTTTTGACACATGCCAGAAGAAACGTTAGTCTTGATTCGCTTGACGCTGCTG	9160
CAAATGATTTATACCCACGCAAAATGACATTGCAATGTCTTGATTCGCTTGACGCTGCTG	6180
CTAACGAAGGTTTGGGACGTGGGTGACAAGCCAAGTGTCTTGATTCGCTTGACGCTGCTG	6950
TGTGAGGATTATTGTCATGTGAAGGCGAGATAGGTAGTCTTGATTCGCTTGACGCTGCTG	6110
CTACATATGTGCAAGCAGGTGACGCTTTACCCTTGAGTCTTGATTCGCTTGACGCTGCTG	5010
GACAAAAAAGCAGGGCACATGTCAAACTCTTGGAAAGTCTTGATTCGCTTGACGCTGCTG	13200
TAACGATGTCATTGCCACGTGGAACATCTTGATTGGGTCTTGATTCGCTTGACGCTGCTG	17800
GTGAGCGAAGAGGTTAATGATATCTTCGATTATTTGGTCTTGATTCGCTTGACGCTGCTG	3670
CGGGGTTAAGTTTTTCACGTGTATTGCTTGCAGCAGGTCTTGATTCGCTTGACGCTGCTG	12300

Set 4
Target: CCNF, cyclin fold, Cln2 fusion (human)
Technique: yeast growth competition, sequencing
Sample: yeast
Setting: strong parent motif
Reference: not given
Reading: higher = stronger binding
Starting sequence: RRM2 docking peptide (human); SKTARRIFQEPTE; partner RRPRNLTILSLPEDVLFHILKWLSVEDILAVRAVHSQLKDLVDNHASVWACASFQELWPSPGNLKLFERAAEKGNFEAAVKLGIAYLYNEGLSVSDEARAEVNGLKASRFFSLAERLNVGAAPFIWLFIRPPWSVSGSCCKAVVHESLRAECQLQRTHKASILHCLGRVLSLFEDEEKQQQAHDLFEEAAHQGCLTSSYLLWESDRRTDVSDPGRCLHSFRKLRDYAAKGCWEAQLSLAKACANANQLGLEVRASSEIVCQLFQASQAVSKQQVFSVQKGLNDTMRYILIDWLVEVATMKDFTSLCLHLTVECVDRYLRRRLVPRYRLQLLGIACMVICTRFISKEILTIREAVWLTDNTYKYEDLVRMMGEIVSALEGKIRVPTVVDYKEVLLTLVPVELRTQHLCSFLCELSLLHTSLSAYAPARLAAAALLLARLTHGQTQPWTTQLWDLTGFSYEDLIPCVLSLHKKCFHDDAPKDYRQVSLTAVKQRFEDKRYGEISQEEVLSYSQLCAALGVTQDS
Substitution	normalised enrichment score
T3A	1.9
E10A	2.74
I7A	0.481
Q9A	5.13
S1A	4.58
T12A	4.73

Set 5
Target: MAFG, bZIP domain (human)
Technique: DHFR protein complementation
Sample: yeast
Setting: single substitutions, most at no-binding floor
Reference: wild-type JUN-FOS pair
Reading: higher = stronger binding
Starting sequence: JUN, bZIP domain (human); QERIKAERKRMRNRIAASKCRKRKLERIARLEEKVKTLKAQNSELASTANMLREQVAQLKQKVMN; partner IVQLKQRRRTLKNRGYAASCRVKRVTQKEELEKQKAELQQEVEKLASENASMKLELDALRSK
Substitution	binding fitness
I28P	-1.49 natural log
V56E	-1.52 natural log
T48I	-1.45 natural log
Q41A	-1.16 natural log
A46T	-1.42 natural log
Q41L	-1.5 natural log
K39R	-1.4 natural log
V56M	-1.48 natural log
A29M	-1.46 natural log
I28A	-1.47 natural log
V35H	-1.47 natural log
A29E	-1.45 natural log
A29L	-1.32 natural log
K36W	-1.53 natural log
N42L	-1.16 natural log
K34G	-1.53 natural log
E44C	-1.2 natural log
A46N	-1.52 natural log
L31D	-1.56 natural log
L45A	-1.57 natural log
L38Q	-1.13 natural log
Q55A	-1.24 natural log
S47T	-1.31 natural log

Other studies, line by line
Substance	target	assay	test system	setting	scale	measurement	value
PhoQ, residues 284 288 289 292 302 303 SVHLDV	PhoP, residues 12 14 15 18 19 HEGLL (Escherichia coli, UniProt P23836)	Sort-seq, refers to: YFP reporter	E. coli	PhoQ-PhoP variant library, with: 10 µM Mg2+	reference: high Mg2+ state, higher = stronger signaling	fold induction	6.64

Some of these lines once more (set 2):
Oligonucleotide	fitted relative affinity
TTAGGTCTCGGTCTCGGTGAGTGCTAG	1.04 z-score
TTAGATATCAGTAGCGATTAGTGCTAG	-0.0523 z-score
GACGATTTCGGGTTTCTAGACGTGCTA	2.61 z-score
TTAGAACTGGGTTATCGATTAGTGCTA	-0.392 z-score
TTAGTTATCGGGACTGGATTAGTGCTA	0.465 z-score
GACGGACTGGGGTTTCGGGACGTGCTA	0.654 z-score
GTCCACTCCAGACCGTTTGCGTGCTAG	0.325 z-score
TCAGACTTTGGTTTGTAACTGTGCTAG	-0.305 z-score
TTAGAACTGAGTATGGATTAGTGCTAG	-0.341 z-score
GACGGTATCCTTCTCCCGACGTGCTAG	7.59 z-score
GACGGTCTCAGACTGGGGACGTGCTAG	0.177 z-score
GACCGTATCCTTATCCTGACGTGCTAG	4.44 z-score
TCAGTGGTCTGTTTCTGACTGTGCTAG	1.39 z-score
GACGAATTCAGACTGGAGACGTGCTAG	0.264 z-score
